Results collected from several papers.
Lines come from different studies, so protocols differ.

| SMILES | organism | assay | test system | setting | MIC |
| --- | --- | --- | --- | --- | --- |
| CC(=O)N[C@@H](CC(C)C)C(=O)N[C@H]1CSSC[C@@H](C(=O)N2CCC[C@H]2C(N)=O)NC(=O)[C@H]([C@@H](C)O)NC(=O)[C@H](C(C)C)NC(=O)[C@H]([C@@H](C)O)NC(=O)[C@H](CCCCN)NC(=O)[C@H](CC(C)C)NC(=O)[C@H](Cc2ccccc2)NC(=O)[C@H](Cc2ccc(O)cc2)NC(=O)[C@H](CC(C)C)NC(=O)[C@H](CCCCN)NC(=O)[C@H](Cc2ccccc2)NC(=O)[C@H](CCCNC(=N)N)NC(=O)[C@H](CCC(N)=O)NC(=O)[C@H](CC(C)C)NC(=O)[C@H](CCCCN)NC(=O)[C@@H]2CCCN2C(=O)[C@H](CCCCN)NC(=O)[C@H](C(C)C)NC(=O)[C@H](CC(N)=O)NC(=O)[C@H](Cc2ccc(O)cc2)NC(=O)[C@H]([C@@H](C)O)NC1=O | Vibrio alginolyticus | broth dilution | – | 24 h | > 40 µM |
| CC(C)CCCCCCCCC/C=C/C(=O)N[C@@H](CC(=O)O)C(=O)N[C@H]1CNC(=O)[C@@H]2CCCN2C(=O)[C@H](C(C)C)NC(=O)[C@@H](CN)NC(=O)CNC(=O)[C@H](CC(=O)O)NC(=O)CNC(=O)[C@H](CC(=O)O)NC(=O)[C@H](CC(=O)O)NC(=O)[C@H]2CCCCN2C1=O | Enterococcus | broth microdilution | VRE 155, Mueller-Hinton broth, Mg2+ 10 mg/L | 16 h, together with: Ca2+ 10 mM | 0.5 µg/mL |
| CC1(C)C(NC(=O)C(=NOC2(C(=O)O)CC2)c2csc(N)n2)C(=O)N1OS(=O)(=O)O (stereo not drawn) | Klebsiella pneumoniae | – | ATCC 1705, ESBL, NDM and KPC | compound alone | 2 µg/mL |
| COc1ccc(C2=[N+]([O-])c3ccccc3N3CC(C)(C)CN=C23)cc1 | Bacteroides fragilis | – | – | – | 0.125 to 0.5 µg/mL |
| OB(O)c1ccc(OCc2ccccc2)nc1F | Klebsiella aerogenes | bacterial growth | AmpC overproducer clinical isolate | without cefotaxime | > 2050 µg/mL |
| CSCC[C@H](NC=O)C(=O)N[C@@H](CCCNC(=N)N)C(=O)N[C@H](C(=O)NCC(=O)N[C@@H](CC(N)=O)C(=O)N[C@@H](C)C(=O)N[C@@H](CC(N)=O)C(=O)NCC(=O)N1CCN(c2ccc(N3C[C@H](CNC(C)=O)OC3=O)cc2F)CC1)[C@@H](C)O | Shigella flexneri | broth dilution | CGMCC 1.187 | – | 100 µM |
| CC(=O)N[C@@H](CC(C)C)C(=O)N[C@H]1CSSC[C@@H](C(=O)N2CCC[C@H]2C(N)=O)NC(=O)[C@H]([C@@H](C)O)NC(=O)[C@H](C(C)C)NC(=O)[C@H]([C@@H](C)O)NC(=O)CNC(=O)[C@H](CC(C)C)NC(=O)[C@H](Cc2ccccc2)NC(=O)[C@H](Cc2ccc(O)cc2)NC(=O)[C@H](CC(C)C)NC(=O)[C@H](CCCCN)NC(=O)[C@H](Cc2ccccc2)NC(=O)[C@H](CCCNC(=N)N)NC(=O)[C@H](CCC(N)=O)NC(=O)[C@H](CC(C)C)NC(=O)[C@H](CCCCN)NC(=O)[C@@H]2CCCN2C(=O)[C@H](CCCCN)NC(=O)[C@H](C(C)C)NC(=O)[C@H](CCCCN)NC(=O)[C@H](Cc2ccc(O)cc2)NC(=O)[C@H]([C@@H](C)O)NC1=O | Corynebacterium glutamicum | broth dilution | CGMCC strain | 24 h | < 1.25 µM |
| CC[C@H](C)[C@H](NC(=O)[C@H](CCCCN)NC(=O)[C@H](CCCCN)NC(=O)[C@H](Cc1ccccc1)NC(=O)[C@H](Cc1ccccc1)NC(=O)[C@H](CCCCN)NC(=O)[C@H](CCCCN)NC(=O)[C@H](Cc1ccccc1)NC(=O)[C@H](CCCNC(=N)N)NC(=O)[C@@H](N)CCCCN)C(=O)N[C@@H](CCCCN)C(=O)N[C@@H](CCCCN)C(=O)N[C@@H](CO)C(=O)N[C@H](C(=O)N[C@@H](CCCCN)C(=O)N[C@@H](CCCCN)C(=O)N[C@@H](CCCNC(=N)N)C(=O)N[C@H](C(=O)N[C@@H](CCCCN)C(=O)N[C@@H](CCCCN)C(=O)N[C@@H](CC(C)C)C(=O)N[C@@H](Cc1ccccc1)C(=O)N[C@@H](CCCCN)C(=O)N[C@@H](CCCCN)C(=O)N1CCC[C@H]1C(=O)N[C@@H](CCCNC(=N)N)C(=O)N[C@H](C(=O)N[C@H](C(=O)N1CCC[C@H]1C(=O)N[C@H](C(=O)N[C@@H](CO)C(=O)N[C@H](C(=O)N1CCC[C@H]1C(=O)N[C@@H](Cc1ccccc1)C(=O)O)[C@@H](C)CC)[C@@H](C)CC)[C@@H](C)CC)C(C)C)C(C)C)C(C)C | Pseudomonas aeruginosa | – | P1 | 20 h, together with: 200 mM NaCl | 4 µg/mL |
| CC(=O)N[C@@H](CC(C)C)C(=O)N[C@H]1CSSC[C@@H](C(=O)N2CCC[C@H]2C(N)=O)NC(=O)[C@H]([C@@H](C)O)NC(=O)[C@H](C(C)C)NC(=O)[C@H]([C@@H](C)O)NC(=O)CNC(=O)[C@H](CC(C)C)NC(=O)[C@H](Cc2ccccc2)NC(=O)[C@H](Cc2ccc(O)cc2)NC(=O)[C@H](CC(C)C)NC(=O)[C@H](CCCCN)NC(=O)[C@H](Cc2ccccc2)NC(=O)[C@H](CCCNC(=N)N)NC(=O)[C@H](CCC(N)=O)NC(=O)[C@H](CC(C)C)NC(=O)[C@H](CCCCN)NC(=O)[C@@H]2CCCN2C(=O)[C@H](CCCCN)NC(=O)[C@H](C(C)C)NC(=O)[C@H](CC(N)=O)NC(=O)[C@H](Cc2ccc(O)cc2)NC(=O)[C@H]([C@@H](C)O)NC1=O | Vibrio alginolyticus | broth dilution | – | 24 h | > 40 µM |
| [O-][N+]1=C(c2ccccc2)C2=NCCCN2c2ncccc21 | Bacteroides fragilis | – | – | – | 0.06 to 0.125 µg/mL |
| CC(C)CCCCCCCCC/C=C/C(=O)N[C@@H](CC(N)=O)C(=O)N[C@H]1CNC(=O)[C@@H]2CCCN2C(=O)[C@H](C(C)C)NC(=O)[C@@H](CN)NC(=O)CNC(=O)[C@H](CC(=O)O)NC(=O)CNC(=O)[C@H](CC(=O)O)NC(=O)[C@H](CC(=O)O)NC(=O)[C@H]2CCCCN2C1=O | Enterococcus | broth microdilution | VRE 155, Mueller-Hinton broth, Mg2+ 10 mg/L | 16 h, together with: Ca2+ 2.5 mM | 1 µg/mL |
| COc1ccc(C2=[N+]([O-])c3ccccc3N3CCN=C23)cc1 | Bacteroides fragilis | – | – | – | 0.06 to 0.125 µg/mL |
| O=C(c1ccccc1O)c1[nH]c(Cl)c(Cl)c1-n1c(C(=O)c2ccccc2O)cc(Cl)c1Cl | Listeria ivanovii | – | BAA-139 | – | 0.5 µM |
| CN[C@H](CC(C)C)C(=O)N[C@H]1C(=O)N[C@@H](CC(N)=O)C(=O)N[C@H]2C(=O)N[C@H]3C(=O)N[C@H](C(=O)N[C@H](C(=O)NCC(N)=O)c4cc(O)cc(O)c4-c4cc3ccc4O)[C@H](O)c3ccc(c(Cl)c3)Oc3cc2cc(c3O[C@@H]2O[C@H](CO)[C@@H](O)[C@H](O)[C@H]2O[C@H]2C[C@](C)(NCc3ccc(OCc4cn(CC(=O)N[C@H](C(=O)N[C@@H](CCN)C(=O)N[C@H]5CCNC(=O)[C@H]([C@@H](C)O)NC(=O)[C@H](CCN)NC(=O)[C@H](CCN)NC(=O)[C@H](CC(C)C)NC(=O)[C@@H](CC(C)C)NC(=O)[C@H](CCN)NC5=O)[C@@H](C)O)nn4)c(OC)c3)[C@H](O)[C@H](C)O2)Oc2ccc(cc2Cl)[C@H]1O | Enterococcus faecalis | broth microdilution | vancomycin-resistant | – | 48 µM |
| CCCCCCCC(=O)NCCCC[C@H](NC(=O)CCCCCCC)C(=O)N[C@@H](CCCCNC(=O)CCCCCCC)C(=O)NCC(=O)NCC(=O)NCC(=O)N[C@@H](CS)C(=O)N[C@@H](CCCNC(=N)N)C(=O)N[C@@H](CCCCN)C(=O)N1CCC[C@H]1C(N)=O | Candida parapsilosis | broth microdilution | CGMCC 2.399, RPMI-1640 | 48 h, 30 °C | > 128 µM |
| C[N+]1=C2C(c3ccccc3)=[N+]([O-])c3ccccc3N2CCC1 | Bacteroides spp. and Parabacteroides distasonis | – | – | – | 1 to 4 µg/mL |
| CC(=O)N[C@@H](CC(C)C)C(=O)N[C@H]1CSSC[C@@H](C(=O)N2CCC[C@H]2C(N)=O)NC(=O)[C@H]([C@@H](C)O)NC(=O)[C@H](C(C)C)NC(=O)[C@H]([C@@H](C)O)NC(=O)CNC(=O)[C@H](CCCCN)NC(=O)[C@H](Cc2ccccc2)NC(=O)[C@H](Cc2ccc(O)cc2)NC(=O)[C@H](CCCCN)NC(=O)[C@H](CCC(=O)O)NC(=O)[C@H](Cc2ccccc2)NC(=O)[C@H](CCCNC(=N)N)NC(=O)[C@H](CCCCN)NC(=O)[C@H](CC(C)C)NC(=O)[C@H](CC(=O)O)NC(=O)[C@@H]2CCCN2C(=O)[C@H](CCCCN)NC(=O)[C@H](C(C)C)NC(=O)[C@H](CCCCN)NC(=O)[C@H](CCCCN)NC(=O)[C@H]([C@@H](C)O)NC1=O | Vibrio alginolyticus | broth dilution | – | 24 h | > 40 µM |
| C[N+]1=C2C(c3ccc([N+](=O)[O-])cc3)=[N+]([O-])c3ccccc3N2CCC1 | Bacteroides fragilis | – | – | – | 0.125 to 2 µg/mL |
| CC(=O)N[C@@H](CC(C)C)C(=O)N[C@H]1CSSC[C@@H](C(=O)N2CCC[C@H]2C(N)=O)NC(=O)[C@H]([C@@H](C)O)NC(=O)[C@H](C(C)C)NC(=O)[C@H]([C@@H](C)O)NC(=O)CNC(=O)[C@H](CC(C)C)NC(=O)[C@H](Cc2ccccc2)NC(=O)[C@H](Cc2ccc(O)cc2)NC(=O)[C@H](CC(C)C)NC(=O)[C@H](CCCCN)NC(=O)[C@H](Cc2ccccc2)NC(=O)[C@H](CCCNC(=N)N)NC(=O)[C@H](CCCCN)NC(=O)[C@H](CC(C)C)NC(=O)[C@H](CCCCN)NC(=O)[C@@H]2CCCN2C(=O)[C@H](CCCCN)NC(=O)[C@H](C(C)C)NC(=O)[C@H](CC(N)=O)NC(=O)[C@H](Cc2ccc(O)cc2)NC(=O)[C@H]([C@@H](C)O)NC1=O | Corynebacterium glutamicum | broth dilution | CGMCC strain | 24 h | < 1.25 µM |
| [O-][N+]1=C(c2ccsc2)C2=NCCCN2c2ccccc21 | Bacteroides fragilis | – | – | – | 0.125 to 1 µg/mL |
| CCCCCCCCCCCCCC(=O)N[C@H]1C(=O)N[C@@H](CN)C(=O)N[C@@H](CO)C(=O)N[C@@H](Cc2ccc(O)cc2)C(=O)O[C@H]1C | Staphylococcus aureus | – | SH1000 | together with: menaquinone-4, molar ratio 1 | 2 µg/mL |

For quick reference, copied from above:
| SMILES | organism | assay | test system | setting | MIC |
| --- | --- | --- | --- | --- | --- |
| [O-][N+]1=C(c2ccsc2)C2=NCCCN2c2ccccc21 | Bacteroides fragilis | – | – | – | 0.125 to 1 µg/mL |
